Measurements of several laboratories.
Each line is one published result; not all experiments were run side by side. Numbers after ± are the reported error.

`O=C(O)c1cc(/N=N/c2ccc(S(=O)(=O)Nc3ccccn3)cc2)ccc1O` has a thermodynamic solubility of 0.02 mg/g (shake-flask; Captex 355; 37 °C).
The mid-interval concentration of `CC(C)CCCCC(=O)N[C@@H](CCN)C(=O)N[C@H](C(=O)N[C@@H](CCN)C(=O)N[C@H]1CCNC(=O)[C@H]([C@@H](C)O)NC(=O)[C@H](CCN)NC(=O)[C@H](CCN)NC(=O)[C@H](CC(C)C)NC(=O)[C@@H](Cc2ccccc2)NC(=O)[C@H](CCN)NC1=O)[C@@H](C)O` is reported as 500 ± 200 ng/mL (UPLC-MS/MS; intensive care patients Non-AKI, plasma; iv, dose not given, 6 h post-dose, steady state, polymyxin B dosing).
`CCCC(C)N1CCC(N(Cc2ccccc2)C(=O)Nc2ccc(C(F)(F)F)nc2C)CC1` (stereo not shown) gave an intrinsic clearance of less than 13 mL/min/kg (CD-1 female mouse, liver microsomes; 0.8 µM).
`CO[C@H]1C[C@@H]2CC[C@@H](C)[C@@](O)(O2)C(=O)C(=O)N2CCCC[C@H]2C(=O)O[C@H]([C@H](C)C[C@@H]2CC[C@@H](O)[C@H](OC)C2)CC(=O)[C@H](C)/C=C(\C)[C@@H](O)[C@@H](OC)C(=O)[C@H](C)C[C@H](C)/C=C/C=C/C=C/1C` gave an AUC(0-48h) of 140 ± 23.9 ng·h/mL (LC-MS/MS; healthy dogs, whole blood; oral, 0.1 mg/kg single dose).
With `O=C(CCCCCCC(=O)Nc1ccccc1)NO` the AUC(0-8 h) was 14.3 µM·h (human, serum; oral, 600 mg twice daily).
With `CC(C)(C)NC(=O)[C@@H]1C[C@@H]2CCCC[C@@H]2CN1C[C@@H](O)[C@H](Cc1ccccc1)NC(=O)[C@H](CC(N)=O)NC(=O)c1ccc2ccccc2n1` the thermodynamic solubility was 2.34 ± 0.09 mg/g (shake-flask; soybean oil; 37 °C).
`Cc1nc2cccc(OCC(C)(C)C(=O)NC(C)C)c2c(N)c1C(=O)O` has a Cmax of 79.2 ng/mL (male Sprague-Dawley rat, plasma; dietary, 100 mg/kg/day, day 7).
The log AUC(0-72h) of `N[C@@H](CC(=O)N1CCn2c(nnc2C(F)(F)F)C1)Cc1cc(F)c(F)cc1F` is reported as 9.86 ng·h/mL (adult UCB transplant recipients, plasma; oral, 600 mg four times, observed median).
With `CNCc1ccc(-c2[nH]c3cc(F)cc4c3c2CCNC4=O)cc1` the half-life was 15.2 h (human patients, plasma; oral, 300 mg once daily, day 1, single dose, arithmetic mean).
`CCCSc1ccc2nc(NC(=O)OC)[nH]c2c1` gave a thermodynamic solubility of less than 1 µg/mL (PBS; 24 h, pH 7.4, room temperature).
The dose-normalized AUC(0-inf) of `[2H]C([2H])([2H])Oc1cc2c(cc1OC([2H])([2H])[2H])C1CC(=O)C(CC(C)C)CN1CC2` (stereo not shown) is reported as 20.8 ng·h/mL (item: deuterated total (α+β)-HTBZ; healthy human volunteers, plasma; oral, 6 mg single dose, standard meal).
For `CCCCCCCCC/C=C/C(=O)CCc1ccc(O)c(OC)c1`, the recovery was 0.15% (rat, small intestine site 4 contents; oral, dose not given, 2 h, β-glucuronidase treated; reference: ingested amount).
For `O=C(O)[C@H](c1ccccc1Cl)N1CCc2sccc2C1`, “deviation from nominal” read 7% (HPLC-MS/MS; feline citrate plasma; 72 h, -80 °C, storage stability).
The AUC(tau) of `COc1ccc(-n2nc(C(N)=O)c3c2C(=O)N(c2ccc(N4CCCCC4=O)cc2)CC3)cc1` is reported as 2700 ng·h/mL (healthy Chinese subjects; oral, 10 mg twice daily, day 9).
With `Nc1nc(N)c2nc(CNc3ccc(C(=O)N[C@@H](CCC(=O)O)C(=O)O)cc3)cnc2n1` the terminal half-life was roughly 1.11 h (female Lewis rats, plasma; subcutaneous, 500 nmol/kg of parent drug).
`C#C[C@]1(O)CC[C@H]2[C@@H]3CCc4cc(O)ccc4[C@H]3CC[C@@]21C` gave a thermodynamic solubility of no less than 99.4 mg/g (shake-flask; polysorbate 80; 37 °C).
With `CCCCC1(CCCC)CN(c2ccccc2)c2cc(SC)c(OCC(=O)N[C@@H](C(=O)NCC(=O)O)c3ccccc3)cc2S(=O)(=O)C1` the AUC(0-t) was 12.8 ng·h/mL (human, plasma; oral, 20 mg, no breakfast).
The Cmax of `CC[C@H](C)[C@@H]1NC(=O)[C@H](Cc2ccc(O)cc2)NC(=O)[C@@H](N)CSSC[C@@H](C(=O)N2CCC[C@H]2C(=O)N[C@@H](CC(C)C)C(=O)NCC(N)=O)NC(=O)[C@H](CC(N)=O)NC(=O)[C@H](CCC(N)=O)NC1=O` is reported as 3.84 pg/sample (microdialysis, radioimmunoassay; knock-out male mice lacking compound, amygdala extracellular fluid; intranasal, 12 µg).
`CC(C)/N=c1\cc2n(-c3ccc(Cl)cc3)c3ccccc3nc-2cc1Nc1ccc(Cl)cc1` has a thermodynamic solubility of 15.6 ± 1.04 mg/g (shake-flask; polysorbate 80; 37 °C).
For `CC(C)(CC(=O)N1CCCC1)NCC(=O)N1C[C@@H](F)C[C@H]1C#N`, “AUC(0-inf) at steady state” read 782 ng·h/mL (Chinese type 2 diabetes patients, plasma; oral, 50 mg once daily, multiple doses).
`CC1(C)Oc2cc3oc(=O)ccc3cc2C[C@@H]1O` has an organ weight of 0.23 ± 0.02 g (CD-1 mouse, male, lung; oral gavage, 80 mg/kg daily, 4 weeks).
For `O=C1N=C(N2CCOCC2)CN1c1ccc(Cl)cc1`, “apparent volume of distribution (Vz/F)” read 0.68 L/kg (beagle dog, male; oral, 30 mg/kg, tablets, fasted).
The compound remaining of `CCc1cn([C@@H]2O[C@H](CO)[C@@H](O)[C@H]2O)c2ncnc(C)c12` is reported as 99% (metabolic stability; mouse, liver microsomes; 15 min).
With `COC(=O)Nc1nc2ccc(Sc3ccccc3)cc2[nH]1` the thermodynamic solubility was 0.09 ± 0.01 mg/g (shake-flask; soybean oil; 37 °C).
`Cn1c(-c2ccc(C(N)=O)cc2F)nnc1C(C)(C)Oc1c(F)cc(Cl)cc1F` has a half-life median of 18.4 h (young Japanese adults, plasma; oral, 20 mg single dose, day 1, high-dose multiple-dose study).
`CC(C)[C@H](NC(=O)[C@@H]1CCCN1C(=O)[C@H](CCCNC(=N)N)NC(=O)[C@H](CS)NC(=O)[C@H](Cc1c[nH]c2ccccc12)NC(=O)[C@H](CCCNC(=N)N)NC(=O)[C@@H](Cc1ccccc1)NC(=O)[C@H](Cc1c[nH]cn1)NC(=O)[C@H](CCC(=O)O)NC(=O)[C@H](CS)NC(=O)[C@H](CS)NC(=O)[C@H](CCCCN)NC(=O)[C@@H]1CC(=O)N[C@@H](CCCNC(=N)N)C(=O)N[C@@H](C(C)C)C(=O)N[C@@H](CC(=O)O)C(=O)N[C@H](Cc2ccc(O)cc2)C(=O)N1)C(N)=O` [technetium-99m labelled] gave a tissue uptake of 0.06 ± 0.03 %ID/g (C57 mouse, female, B16/F1 melanoma, pancreas; intravenous, 2 h, with: NDP-MSH 10 µg co-injected).
For `O=C(O)CNC(=O)/C=C/c1ccccc1`, “total plasma concentration ratio” read 28 (human hemodialysis patients, plasma; pre-treatment; reference: hemodialysis over normal subjects).
`Nc1nc(NC2CC2)c2ncn([C@H]3C=C[C@@H](CO)C3)c2n1` gave an effective permeability of 125 ± 23 ×10⁻⁶ cm/s (equilibrium dialysis; cellulose membrane, cell-free; pH 7.4, no Pluronic P85).
The dose-normalized AUC(0-tau) of `Cn1cc(-c2cn3nccc3c(-c3cnn([C@]4(CC#N)C[C@@H](C#N)C4)c3)n2)cn1` is reported as 10 ng·h/mL/mg (healthy human, plasma; 200 mg twice daily, day 10, multiple dose, fed, geometric mean).
`des-acyl ghrelin (human)` gave a tissue/serum ratio of 14.1 µL/g (Ghsr knockout mice, pons and medulla; intravenous, dose not given, 10 min, vascular space corrected).
For `CCCC[C@@H]1NC(=O)[C@@H](NC(=O)[C@H](CCC(=O)O)NC(=O)CNC(=O)CN2CCN(CC(=O)O)CCN(CC(=O)O)CCN(CC(=O)O)CC2)CCCCNC(=O)C[C@@H](C(N)=O)NC(=O)[C@H](C(C)C)NC(=O)[C@@H]2CCCN2C(=O)[C@H](CCCNC(=N)N)NC(=O)CNC(=O)[C@H](Cc2c[nH]c3ccccc23)NC(=O)[C@H](CCCNC(=N)N)NC(=O)[C@@H](Cc2ccccc2)NC(=O)[C@H](Cc2c[nH]cn2)NC(=O)[C@H](CCC(=O)O)NC1=O` [indium-111 labelled], the tissue uptake was 16.2 ± 0.62 %ID/g (C57 mice, B16/F10 lung metastatic melanoma, kidneys; intravenous, 0.037 MBq, 2 h).
`CC(=O)Oc1ccccc1C(=O)O` has a QTc change of 2.5 ± 1.8% (male Hartley guinea pig, anaesthetized; intravenous infusion, 10 mg/kg, 10 min infusion; reference: baseline).
`CCCC[C@H](NC(C)=O)C(=O)N[C@H]1CCC(=O)NC[C@@H](C(=O)N[C@@H](Cc2c[nH]c3ccccc23)C(N)=O)NC(=O)[C@H](CCCNC(=N)N)NC(=O)[C@@H](Cc2ccccc2)NC(=O)[C@H](Cc2c[nH]cn2)NC1=O` gave an AUC(0-last) of 1250 ng·h/mL (beagle dog, female, plasma; subcutaneous, 8.0 mg/kg daily, day 28).
`O=c1c(O)c(-c2cc(O)c(O)c(O)c2)oc2cc(O)cc(O)c12` has a Papp A→B of 5.55 ×10⁻⁶ cm/s (mass spectrometry; Caco-2; 40 µM, 6 h).
`C[C@]12CC[C@@H]3c4ccc(O)cc4CC[C@H]3[C@@H]1C[C@@H](O)[C@@H]2O` — result for “maximum serum concentration”: 0.0377 ng/mL (GC-MS; breast cancer women on NSAI, serum; vaginal, 0.03 mg daily, 4 h, day 28).
With `CCCCOC(=O)N1CCN(C(=O)[C@H](CP(=O)(O)O)NC(=O)c2cc(N3CC[C@H](OC)C3)nc(-c3ccccc3)n2)CC1` the Vd/F was 35.5 L (healthy human, plasma; subcutaneous, 4 mg, with: rifampin 600 mg i.v.; geometric mean).
For `Cc1ncsc1-c1ccc(CNC(=O)[C@@H]2C[C@@H](O)CN2C(=O)[C@@H](NC(=O)CCCCCCCCCCNC(=O)O[C@H]2C[C@@H](C)C=C3C=C[C@H](C)[C@H](CC[C@@H]4C[C@@H](O)CC(=O)O4)[C@H]32)C(C)(C)C)cc1`, the AUC(0-t) was 5 µM·h (C57BL/6 mouse, plasma; oral, 60 mg/kg, single dose).
